Results pooled from the literature.
Lines come from different studies, so protocols differ. ± gives the spread as reported.
B1: PYCR2 R119C (Homo sapiens, UniProt Q96C36); chain MSVGFIGAGQLAYALARGFTAAGILSAHKIIASSPEMNLPTVSALRKMGVNLTRSNKETVKHSDVLFLAVKPHIIPFILDEIGADVQARHIVVSCAAGVTISSVEKKLMAFQPAPKVICCMTNTPVVVQEGATVYATGTHALVEDGQLLEQLMSSVGFCTEVEEDLIDAVTGLSGSGPAYAFMALDALADGGVKMGLPRRLAIQLGAQALLGAAKMLLDSEQHPCQLKDNVCSPGGATIHALHFLESGGFRSLLINAVEASCIRTRELQSMADQEKISPAALKKTLLDRVKLESPTVSTLTPSSPGKLLTRSLALGGKKD
B2: enzyme S252E (Schizosaccharomyces pombe, UniProt P78804); chain MSTPYEPEFQQAYKEIVGSIESSKLFEVHPELKRVLPIISIPERVLEFRVTWEDDKGNCRVNTGYRVQFNSALGPYKGGLRFHPSVNLSILKFLGFEQIFKNALTGLPMGGGKGGSDFDPKGKSDNEIRRFSQAFMRQLFRYIGPQTDVPAGDIGVTGFVVMHMFGEYKRLRNEYSGVVTGKHMLTGGSNIRPEATGYGVVYYVKHMIEHRTKGAETLKGKRVAISGSGNVAQYAALKCIQEGAIVKSISDEKGVLIAKTAEGLVPEEIHEIMALKEKRASIADSASLCKKHHYIAGARPWTNVGEIDIALPCATQNEVSGEEAAALIKQGCRYVAEGSNMGSSAEAVEVFEKSRASGEGCWLAPGKAANAGGVAVSGLEMAQNAQFSTWTHAEVDAKLAGIMQNIFEQSTDVASKYCDSGSNNIPSLVDGANIAGFLKVATAMQAVGDWW
B3: enzyme (Bordetella petrii, UniProt A9I5G2); chain MQATYDVVIRHAEIVDGTGAARFEGDIGIDGDRISRIGDLSHARGRREIDAVGLVAAPGFIDAHTHDDRVMLSAGDMTPKVSQGVTTVIGGNCGISLAPMPQPAPATITPPLDLLDASGQWYRYARFGDYLDSLRTQPAATNCAMLVGHSTLRVITMSDLGRPANEAEIAAMRGHVAEAMESGAIGVSTGLAYAPAMAASTEEVIEICRPLAHHHGLYCTHMRDEGDDIMESLDETFRIGRELGVPVVISHHKVTGVNNFGRSQETLERIRHAMARQPVCLDCYPYPASSTILTYSHAVGSSRTIVTWSRALPQYAGRDLADIAQEMGCSLEDAVQRLLPAGAIYFRMDDADVERILQFDETMIGSDGLPHDEQPHPRLWGTFPRILGHYCRDLGLFPLEKAIHKMTGLTAERFGLADRGVVREGAYADLAIFDAGTVSDRATFAKPVAPSDGIHTVLVNGEVVWRDGRSAGARPGRVLRRAVPA
B4: ART1 (Homo sapiens, UniProt P52961); chain QSHPITRRDLFSQEIQLDMALASFDDQYAGCAAAMTAALPDLNHTEFQANQVYADSWTLASSQWQERQARWPEWSLSPTRPSPPPLGFRDEHGVALLAYTANSPLHKEFNAAVREAGRSRAHYLHHFSFKTLHFLLTEALQLLGSGQRPPRCHQVFRGVHGLRFRPAGPRATVRLGGFASASLKHVAAQQFGEDTFFGIWTCLGAPIKGYSFFPGEEEVLIPPFETFQVINASRLAQGPARIYLRALGKHSTYNCEYIKDKKCKSGPCHLDNS
B5: enzyme (Pseudomonas poae, UniProt A0A2S9EJ63); chain MSTQHYDYIIVGGGSAGSVLANRLSAQADKRVLLIEAGADTPEHDTPTDILDGLQPWLPRLAGERYFWPGLNILRASEHGDIPREPQLYEQARILGGGSSVNMMVANRGLPRDYDEWARLGADGWDWQGVLPYFRKLERDLDFGHSHPEQHGQDGPIPIARVDSRHWGSFTRASAQALHTQGLNDIVDQNGRFEDGYFAPAVAIEHDQRVSSARAYLNAAVRARPNLSVWADTTVRQLTVKGQRVTGVQAVRDGRTVELAGDEVILAAGALQSPAFLLRAGIGPADQLRDLGIEVIADRPGVGRNLWDHSSIGLSASLHHPQVPSDEPGAAHLLAARVSSGVEPSVPGDLYLGIAPNAALGLASAVLWVNKPSSSGHLRLRSKDPADYPAVEFNLLSDRRDLERLRQGLRLLARVFAHPAVAAFSGPPRLSRFAQASNEGPLLSELLANDAQLERYLRTHVGGVWHASGTCRIGRADDPQAVVDHAGRVHGVQGLRVADASVFPSIPTANTNLPTLMIAEKIAEAILANA
B6: human VDAC2; sequence looked up; chain ATHGQTCARPMCIPPSYADLGKAARDIFNKGFGFGLVKLDVKTKSCSGVEFSTSGSSNTDTGKVTGTLETKYKWCEYGLTFTEKWNTDNTLGTEIAIEDQICQGLKLTFDTTFSPNTGKKSGKIKSSYKRECINLGCDVDFDFAGPAIHGSAVFGYEGWLAGYQMTFDSAKSKLTRNNFAVGYRTGDFQLHTNVNDGTEFGGSIYQKVCEDLDTSVNLAWTSGTNCTRFGIAAKYQLDPTASISAKVNNSSLIGVGYTQTLRPGVKLTLSALVDGKSINAGGHKVGLALELEA
B7: aspC A106G/A17N/A218G/A278L/A281T/A8Q/D18E/F210I/F212I/F350Y/G15S/G249S/I187A/I279A/I29V/I33V/I341V/I5L/I68L/I71L/L46M/M321L/M380L/N285S/N30D/N64T/S129T/S135A/S273G/S351L/T100S/V125I/V136I/V375I/Y244C (Escherichia coli, UniProt P00509); chain MFENLTAQPADPILSLNELFRADERPGKVDLGVGVYKDETGKTPVMTSVKKAEQYLLENETTKTYLGLDGLPEFGRCTQELLFGKGSALINDKRARTAQSPGGTGGLRVAADFLAKNTSVKRVWISNPTWPNHKAIFNSAGLEVREYAYYDAENHTLDFDALINSLNEAQAGDVVLFHGCCHNPTGADPTLEQWQTLAQLSVEKGWLPLIDIAYQGFGRGLEEDAEGLRAFAAMHKELIVASSCSKNFSLYNERVGACTLVAADSETVDRAFGQMKALARTNYSSPPAHGASVVATILSNDALRAIWEQELTDMRQRIQRLRQLFVNTLQEKGANRDFSFVIKQNGMFSYLGLTKEQVLRLREEFGVYAVASGRINVAGLTPDNMAPLCEAIVAVL
B8: poly(rC)-binding protein 2, human; sequence looked up; chain MDTGVIEGGLNVTLTIRLLMHGKEVGSIIGKKGESVKKMREESGARINISEGNCPERIITLAGPTNAIFKAFAMIIDKLEEDISSSMTNSTAASRPPVTLRLVVPASQCGSLIGKGGCKIKEIRESTGAQVQVAGDMLPNSTERAITIAGIPQSIIECVKQICVVMLETLSQSPPKGVTIPYRPKPSSSPVIFAGGQDRYSTGSDSASFPHTTPSMCLNPDLEGPPLEAYTIQGQYAIPQPDLTKLHQLAMQQSHFPMTHGNTGFSGIESSSPEVKGYWGLDASAQTTSHELTIPNDLIGCIIGRQGAKINEIRQMSGAQIKIANPVEGSTDRQVTITGSAASISLAQYLINVRLSSETGGMGSS
B9: enzyme (Oryza sativa, UniProt Q6ZGQ4); chain ASGPPFSCGAPSSAAFCNPRLPIEQRADDLVSRLTLEEKISQLGDQSPAVDRLGVPAYKWWSEALHGVSNAGRGIHLDGPLRAATSFPQVILTAASFNPHLWYRIGQVIGTEARAVYNNGQAEGLTFWAPNINVFRDPRWGRGQETPGEDPTVTGKYAAVFVRGVQGYALAGAINSTDLEASACCKHFTAYDLENWKGVTRYAFDAKVTAQDLADTYNPPFRSCVEDGGASGIMCSYNRVNGVPTCADYNLLSKTARGDWRFYGYITSDCDAVSIIHDVQGYAKTAEDAVADVLKAGMDVNCGSYVQEHGLSAIQQGKITEQDINRALHNLFAVRMRLGLFNGNPKYNRYGNIGPDQVCTQEHQNLALEAAQHGVVLLKNDANALPLSKSQVSSIAVIGHNANDATRLLGNYFGPPCISVTPLQVLQGYVKDTRFLAGCNSAACNVSSIGEAAQLASSVDYVVLFMGLDQDQEREEVDRLELSLPGMQENLINTVANAAKKPVILVLLCGGPVDVTFAKYNPKIGAILWAGYPGEAGGIAIAQVLFGEHNPGGRLPVTWYPKEFTSVPMTDMRMRADPSTGYPGRTYRFYRGNTVYKFGYGLSYSKYSHHFVANGTKLPSLSSIDGLKAMATAAAGTVSYDVEEIGPETCDKLKFPALVRVQNHGPMDGRHPVLLFLRWPNGAADGGRPASQLIGFQSLHLKSMQTVHVEFEVSPCKHFSRATEDGKKVIDHGSHFMMVGDDEFEMSFTP
B10: enzyme (Klebsiella pasteurii, UniProt A0A9Q9S525); chain MSDAKAKITLGGDTAIELDVLKGTLGQDVIDIRSLGSKGVFTFDPGFTSTASCESKITFIDGDEGILLHRGFPIDQLATDSNYLEVCYILLNGEKPTQAQYDEFKTIVTRHTMIHEQITRLFHAFRRDSHPMAVMCGITGALAAFYHDSLDVNNPRHRDIAAFRLLSKMPTMAAMCYKYSIGQPFVYPRNDLSYAGNFLNMMFSTPCEKYEVNPILERAMDRILILHADHEQNASTSTVRTAGSSGANPFACIAAGIASLWGPAHGGANEAALKMLEEISSVEHIPEFVRRAKDKNDSFRLMGFGHRVYKNYDPRATVMRETCHEVLKELGTKDDLLEVAMELEHIALNDPYFIEKKLYPNVDFYSGIILKAMGIPSSMFTVIFAMARTVGWIAHWNEMHSDGMKIARPRQLYTGYEKRDFKNDIAR
B11: enzyme (Pseudomonas aeruginosa, UniProt Q9HTP2); chain MTTLTRADWEARAKDLKIEGRAFVNGEYSNAASGETFDCLSPVDGRFLAKVASCDLADAEQAVKVARNAFDSGAWSRLAPAKRKQTMIRFADLLLENAEELALLETLDMGKPISDSLHIDVASAANSLRWSAEAIDKIYDEVAATPHAELGLVTREPVGVVAAIVPWNFPLLMSCWKLGPALATGNSVILKPSEKSPLTAIRIAQLAVEAGIPKGVFNVLPGYGHTVGKALALHMDVDTLVFTGSTKIAKQLMVYAGESNMKRVWLEAGGKSPNIVFADAPDLKAAAEAAAGAIAFNQGEVCTAGSRLLVERSIKDKFLPLVIEALKGWKPGNPLDPETNVGALVDTQQMNTVLSYIEAGHNDGAKLVAGGKRTLEETGGTYVEPTIFDGVTNAMKIAREEIFGPVLSVIEFEDAEEAVRIANDTPYGLAAAVWTSNLSKAHLTAKALRAGSVWVNQYDGGDMTAPFGGFKQSGNGRDKSLHAFDKYTELKATWIKL

Molecule | target or system | assay | test system | setting | scale | quantity | value
ATTCCAGTATGGCGTATAAATAAAGGCGAGGAGAATCAAGTCAATCGGTCC (dsDNA; 5'-amino-C6 primer) | SUA7 full length assumed (Saccharomyces cerevisiae, UniProt P29055) | array | double-stranded DNA, one strand shown | TFIIB alone | – | Kd | 0.00098 ± 0.00029 µM
enzyme (Pseudomonas aeruginosa, UniProt Q9I5Q5) | Nc1ncnc2c1ncn2[C@@H]1O[C@H](COP(=O)(O)OP(=O)(O)OP(=O)(O)O)[C@@H](O)[C@H]1O | steady-state kinetics | – | pH 7.5, apparent, with: MgCl2 | – | kcat | 46 ± 13 s⁻¹
B1 (PYCR2 R119C) | NC(=O)C1=CN([C@@H]2O[C@H](COP(=O)(O)OP(=O)(O)OC[C@H]3O[C@@H](n4cnc5c(N)ncnc54)[C@H](O)[C@@H]3O)[C@@H](O)[C@H]2O)C=CC1 | steady-state kinetics | – | pH 7.5, 37 °C, apparent, cofactor varied, with: DL-P5C 5000 µM | – | kcat | 0.015 ± 0.001 s⁻¹
B2 (enzyme S252E) | NC(=O)c1ccc[n+]([C@@H]2O[C@H](COP(=O)(O)OP(=O)(O)OC[C@H]3O[C@@H](n4cnc5c(N)ncnc54)[C@H](O)[C@@H]3O)[C@@H](O)[C@H]2O)c1 | steady-state kinetics | – | pH 7, 30 °C, apparent | – | kcat | 0.17 ± 0.01 s⁻¹
B3 (enzyme) | CSCC[C@@H](NC(C)=O)C(=O)O | steady-state kinetics | – | pH 7, 35 °C | – | kcat | 8.65 ± 0.583 s⁻¹
GUUUUCAUU (ssRNA) | U2AF2 148-342 (Homo sapiens, UniProt P26368) | sequencing of bound RNA | RNA | motif only | – | Kd | 11.3 µM
B4 (ART1) | CC(=O)N[C@@H](CCCNC(=N)N)C(=O)O | steady-state kinetics | – | pH 7.5, 25 °C, HEPES 50 mM, with: saturating NAD+ | – | kcat | 9.6 ± 0.9 s⁻¹
B5 (enzyme) | COc1cc(CO)ccc1O | steady-state kinetics | – | pH 8, 30 °C | – | kcat | 0.657 s⁻¹
B6 (human VDAC2) | PP6C (human) | co-immunoprecipitation, IP-MS | CYB5R4 knockout cells | concentration not given | reference: CYB5R4 knockout over parental | log2 fold change | 0.34
B7 | O=C(O)C(=O)Cc1ccccc1 | steady-state kinetics | – | pH 7.5, 25 °C, with: PMP 20 µM, ammonium acetate 10 mM | – | kcat | 0.21 s⁻¹
B8 | CYB5R4 knockout human cells | PP6 interaction, 3xFLAG-PP6C IP-MS | – | concentration not given | reference: CYB5R4 KO over parental | log2 fold change | -2.11
enzyme N248Y/Q325R/R246H/R328K (Arabidopsis thaliana, UniProt O24495) | C[C@@H](O)C(=O)SC[C@H](NC(=O)CC[C@H](N)C(=O)O)C(=O)NCC(=O)O | steady-state kinetics | – | pH 7.2, 25 °C | – | kcat | 17 ± 2 s⁻¹
B9 (enzyme) | O=[N+]([O-])c1ccc(O[C@@H]2O[C@@H](CO)[C@H](O)[C@H]2O)cc1 | steady-state kinetics | – | pH 4, 40 °C, apparent | – | kcat | 0.34 ± 0.01 s⁻¹
B10 (enzyme) | O=C(O)CC(=O)C(=O)O | steady-state kinetics | – | pH 7.5, 30 °C, apparent | – | kcat | 106 ± 7 s⁻¹
B11 (enzyme) | N=C(N)NCCCC=O | steady-state kinetics | – | pH 8, 30 °C, per site | – | kcat | 58 ± 3 s⁻¹

For quick reference, copied from above:
Molecule | target or system | assay | test system | setting | scale | quantity | value
B5 (enzyme) | COc1cc(CO)ccc1O | steady-state kinetics | – | pH 8, 30 °C | – | kcat | 0.657 s⁻¹
B4 (ART1) | CC(=O)N[C@@H](CCCNC(=N)N)C(=O)O | steady-state kinetics | – | pH 7.5, 25 °C, HEPES 50 mM, with: saturating NAD+ | – | kcat | 9.6 ± 0.9 s⁻¹
